{"data": "Measured values collected from several papers", "note": "Each line is one published result; not all experiments were run side by side. “And” joins repeats or separate records; there may be more than shown. ± marks the error that the study gave."}
{"SMILES": "CCn1nc(Cl)c2c1-c1cnc(N)c(c1)O[C@H](C)c1cc(F)ccc1-c1nn(C)cc1C2", "target or system": "Aska-SS (ALK exon 2-17 deletion)", "assay": "cell viability", "endpoint": "Emax", "value": "78.7%"}
{"SMILES": "COc1ccc(NC(=O)c2ccc3[nH]c(-c4ccc(N(C)C)cc4)nc3c2)cn1", "target or system": "HCT116", "assay": "IncuCyte", "conditions": "concentration not given, 20 h", "endpoint": "dead cell to confluence ratio", "value": "97.8 and 400 and 219"}
{"SMILES": "CCC(=CCc1c(O)cc2c(c1O)C(=O)CC(c1ccc(O)cc1)O2)CC (stereo not drawn)", "target or system": "HeLa", "assay": "flow cytometry", "conditions": "48 µM, 48 h", "endpoint": "active caspase-3 cells", "value": "3.42%"}
{"SMILES": "COC(=O)c1cc(NC2=NC(=O)C(=Cc3ccc(N(C)C)cc3)S2)ccc1OC(C)=O", "target or system": "MCF7", "assay": "GC-MS, measured: L-Lysine", "conditions": "1 µM", "scale": "reference: DMSO", "endpoint": "metabolite level", "value": "-0.21 fold change"}
{"SMILES": "O=C(N1CCCC1)n1cc(-c2ccc(-c3ccccc3)cc2)nn1", "target or system": "mouse T cells", "assay": "N-terminal labelling proteomics, measured: ARHGEF2 N-terminal peptides", "conditions": "0.001 µM, 6 h", "scale": "reference: DMSO", "endpoint": "SILAC ratio", "value": 1.18}
{"SMILES": "O=C(Nc1nnc2c1c(-c1ccc(Cl)cc1)nc1sc(=Cc3ccco3)c(=O)n12)c1ccccc1 (mixture of isomers)", "target or system": "TK-10", "assay": "SRB", "conditions": "10 µM, NCI60 single-dose screen", "scale": "reference: untreated", "endpoint": "cell growth", "value": "51.7%"}
{"SMILES": "Cc1cnc(NC(=O)c2cccc([C@@H]3C[C@H]3NC3CCC3)c2)s1", "target or system": "SET-2", "assay": "cell growth, CellTiter-Glo", "conditions": "10 µM, 7 d", "scale": "reference: vehicle", "endpoint": "relative growth", "value": "107% and 80.1% and 88.5%"}
{"SMILES": "COC(=O)[C@@]1(C(C)C)C=C(C(=O)Nc2cccc(C(=O)Nc3ccc(Nc4nccc(-c5cccnc5)n4)c(C)c3)c2)C(=O)CC1", "target or system": "HEK293 AP1 reporter", "assay": "AP1 reporter gene, inhibitor", "conditions": "3 µM, 6 h, unit not given, added: PMA", "scale": "reference: PMA alone", "endpoint": "reporter activity", "value": 0.346}
{"SMILES": "O=C(Nc1ccc(Cl)c(C(F)(F)F)c1)C1(C(=O)Nc2ccc3c(/C=C/c4ccccn4)n[nH]c3c2)CC1", "target or system": "Ba/F3 TEL-VEGFR2", "assay": "cell growth, CCK-8", "endpoint": "GI50", "value": "1500 nM"}
{"SMILES": "COc1cccc(OC)c1-c1cc(C(=O)NC2(C(=O)O)C3CC4CC(C3)CC2C4)nn1-c1ccc(C(=O)NCCNC(=O)[C@H](CCCCNC(=O)[C@H](CC(C)C)NC(=O)C2OC2C(=O)O)NC(=O)CN2CCN(CC(=O)[O-])CCN(CC(=O)[O-])CCN(CC(=O)[O-])CC2)cc1C(C)C.[177Lu+3] (mixture of isomers)", "target or system": "HT-29", "conditions": "concentration not given, 30 min", "scale": "reference: added activity", "endpoint": "surface-bound fraction", "value": "1.32 ± 0.04%"}
{"SMILES": "CCN(CC)CC(=O)Nc1cccc(-n2cc(-c3ccc4ccc(-c5cn(-c6cccc(NC(=O)CN(CC)CC)c6)nn5)cc4c3)nn2)c1", "target or system": "RCC4", "assay": "PCR angiogenesis array, measured: IFNG", "conditions": "5 x IC50, 6 h, normoxia", "scale": "reference: untreated", "endpoint": "fold regulation", "value": 1.06}
{"SMILES": "COc1ccccc1-c1ccncc1C(=O)Nc1nnc(OCc2ccc(Cl)cc2)s1", "target or system": "PEO1 BRCA2-mutant ovarian cancer", "conditions": "0.5 µM, added: olaparib 0.5 µM", "endpoint": "colony survival", "value": "0% and 6.45%"}
{"SMILES": "C=Cc1c(C)c2cc3nc(c(CC(=O)OCCOCCOCCOC)c4[nH]c(cc5nc(cc1[nH]2)C(C)=C5CC)c(C)c4C(=O)OCCOCCOCCOC)[C@@H](CCC(=O)OCCOCCOCCOC)[C@@H]3C", "target or system": "OVCAR-5", "assay": "MTT", "conditions": "0.1 µM, added: D-mannitol 30 mM", "scale": "reference: compound alone", "endpoint": "reduction of phototoxicity", "value": "~8%"}
{"SMILES": "Cc1ccncc1.[Cl-].[Cl-].[Ru+2].c1cc(-c2ccc3cccnc3n2)nc(-c2ccc3cccnc3n2)c1.c1ccc2cc3nc4c5cccnc5c5ncccc5c4nc3cc2c1", "target or system": "SK-MEL-28", "conditions": "light 633 nm, oxygen 18.5%", "scale": "reference: dark EC50 over light EC50", "endpoint": "phototherapeutic index", "value": 115}
{"SMILES": "CNS(=O)(=O)Nc1nccc(Cc2c(C)c3ccc(Oc4ncccc4F)cc3oc2=O)c1F", "target or system": "ChaGo-K-1", "assay": "cell viability", "conditions": "7 days", "endpoint": "IC50", "value": "1.38 nM"}
{"SMILES": "CO[C@@H]1[C@@H](OC(N)=O)[C@@H](O)[C@H](Oc2ccc3c(O)c(NC(=O)c4ccc(O)c(CC=C(C)C)c4)c(=O)oc3c2C)OC1(C)C", "target or system": "HCT-116 BRCA2-/-", "conditions": "100 µM, replicate 1", "endpoint": "colony count", "value": 16}
{"SMILES": "Cn1ncc2cc(-c3cncc(Cl)c3N3CCC4(CCNC4=O)CC3)ccc21", "target or system": "LS174T", "assay": "gene expression, microarray, measured: TNFAIP2 mRNA", "conditions": "concentration not given, 24 h", "scale": "reference: untreated cells", "endpoint": "log2 fold change", "value": 2.03}
{"SMILES": "COc1cc(N2CCN(C(=O)CCOCCNC(=O)[C@@H]3CCCN3)CC2)ccc1Nc1ncc(Cl)c(Nc2ccccc2P(C)(C)=O)n1", "target or system": "H3122", "assay": "flow cytometry", "conditions": "500 nM, 24 h", "endpoint": "G1 phase cells", "value": "59.5% and 60.1% and 61.4%"}
{"SMILES": "CCCCCCCCN(CCC(=O)Nc1ccccc1)C(=O)c1ccccn1", "target or system": "progeroid mouse fibroblasts, Lmna G609G/G609G", "assay": "MTT", "conditions": "2 µM, 72 h", "scale": "reference: vehicle-treated wild type", "endpoint": "viability", "value": "93 ± 9%"}
{"SMILES": "O=C(CCCCCOc1ccc2ccccc2c1)N[C@@H](CO)C[C@@H](O)c1ccc(-c2ccccc2)cc1", "target or system": "HeLa", "assay": "CERT activity, HPLC-MS/MS lipidomics, measured: sphingomyelin 22", "conditions": "1 µM, 24 h, not cell-number normalised", "endpoint": "sphingomyelin level", "value": "45700 pmol/sample and 44500 pmol/sample and 40300 pmol/sample"}
{"SMILES": "Fc1ccc(Nc2nc(NC3CCCCC3)c3cc(C(F)(F)F)ccc3n2)cc1F", "target or system": "transfected HEK293 cells", "assay": "β-arrestin2 recruitment, negative allosteric modulator, BRET", "conditions": "30 min pre-incubation, β1AR ECL1/2 chimera, added: isoproterenol 1 µM", "endpoint": "pIC50", "value": 6.4}
{"SMILES": "CC1(C)C[C@@H](Nc2cccc(-c3sc(C(=O)O)c(OCC(=O)O)c3Cl)c2)CCN1S(=O)(=O)Cc1cccc(NC(=O)CN2CCC(c3ccc4c(c3)oc(=O)n4C3CCC(=O)NC3=O)CC2)c1 (stereo partly drawn)", "target or system": "B16-F10", "assay": "HTRF, measured: phospho-STAT1 Tyr701", "conditions": "3.3 µM, added: IFN-γ", "scale": "reference: min-max normalised", "endpoint": "pSTAT1 level", "value": "78.9% and 87.1% and 82% and 87.5% and 84.2% and 85.4%"}
{"SMILES": "CNC(NN=Cc1ccc([N+](=O)[O-])o1)=[S+][Au-][Cl]", "target or system": "CAKI-1", "assay": "annexin V/PI flow cytometry", "conditions": "10 µM, 72 h", "endpoint": "cell fraction ANV−/PI+", "value": "2 ± 0.2%"}
{"SMILES": "CCCCCCCCCCCC(=O)N[C@H](CO)C[C@@H](O)c1ccccc1", "target or system": "HeLa", "assay": "CERT activity, HPLC-MS/MS lipidomics, measured: sphingomyelin 20", "conditions": "1 µM, 24 h, not cell-number normalised", "endpoint": "sphingomyelin level", "value": "4920 pmol/sample and 4430 pmol/sample and 4250 pmol/sample"}
{"SMILES": "Cc1ncsc1-c1ccc(C(C)NC(=O)C2CC(O)CN2C(=O)C(NC(=O)CCCCCCCCCCN2CCCC(Nc3ncc(Cl)c(Nc4ccccc4S(=O)(=O)C(C)C)n3)C2)C(C)(C)C)cc1 (stereo not drawn)", "target or system": "22Rv1", "assay": "RNA-seq, measured: TNK1 mRNA", "conditions": "concentration not given", "scale": "reference: DMSO", "endpoint": "log2 fold change", "value": -1.38}
{"SMILES": "COC1CN([C@H]2CC[C@H]([C@@]3(C)Oc4c(Cl)cc(C(=O)NCc5c(SC)cc(C)[nH]c5=O)c(C)c4O3)CC2)C1", "assay": "RNA-seq, measured: DAAM2", "test system": "human, whole blood", "conditions": "dose not given, 24 h", "scale": "reference: pretreatment baseline", "endpoint": "log2 fold change", "value": 5.55}
{"SMILES": "C=CC(=O)N1[C@H](c2ccc3c(c2)OCO3)c2[nH]c3ccccc3c2C[C@@H]1C(=O)NC", "target or system": "rat DRG neurons", "conditions": "1.111 µM, 48 h, added: vincristine 40 nM", "endpoint": "neuron degeneration", "value": "24.8% and 26.1%"}
{"SMILES": "Fc1ccc(Nc2nc(NC3CCCCC3)c3ccccc3n2)cc1F", "target or system": "transfected HEK293 cells", "assay": "β-arrestin2 recruitment, negative allosteric modulator, BRET", "conditions": "30 min pre-incubation, β1AR ECL1 chimera, added: isoproterenol 1 µM", "scale": "reference: isoproterenol alone", "endpoint": "Imax", "value": "4.5%"}
{"SMILES": "CN1CCCNC(=O)c2cccc(c2)C(=O)NCCCN(C)CCCNc2cccc3c2C(=O)c2cccc(c2C3=O)NCCC1", "target or system": "SAS", "assay": "RNA-Seq, measured: MRPS33 mRNA", "conditions": "1 µM, 6 h", "scale": "reference: untreated cells", "endpoint": "log2 fold change", "value": 0.735}
{"SMILES": "O=C(Nc1ccc(Sc2ccc3c(/C=C/c4ccccn4)n[nH]c3c2)cc1)C1CCCN1 (stereo not drawn)", "target or system": "Ba/F3 TEL-VEGFR2", "assay": "cell growth, CCK-8", "endpoint": "GI50", "value": "610 nM"}
{"SMILES": "CC(C)c1ccc(N(C)c2ccc3c(c2)OCC[C@H]3CNc2cnccc2C(=O)O)cc1", "target or system": "Daoy", "assay": "cell viability, CellTiter-Glo", "conditions": "7 days", "endpoint": "IC50", "value": "≥ 10000 nM"}
{"SMILES": "CCCC[C@H](N)C(=O)N[C@H]1CSCc2ccc(cc2)-c2ccc(cc2)CSC[C@@H](C(=O)N[C@H](C(N)=O)[C@@H](C)O)NC(=O)[C@H](CCCCN)NC(=O)[C@H](CCCCN)NC(=O)[C@H](CCCCN)NC(=O)[C@H](Cc2ccc(O)cc2)NC(=O)[C@H](CC(N)=O)NC(=O)[C@H](CC(C)C)NC1=O", "target or system": "U2OS expressing KRAS G12D", "assay": "KRAS G12D dimerisation", "conditions": "50 µM", "endpoint": "inhibition", "value": "~50%"}
{"SMILES": "O=C(NCCSc1ccc2c(/C=C/c3ccccn3)n[nH]c2c1)Nc1ccc(F)c(F)c1", "target or system": "Ba/F3 TEL-VEGFR3", "assay": "cell growth, CCK-8", "endpoint": "GI50", "value": "960 nM"}
